Experimental data from different studies.
Compare with care: the assays were run in different laboratories. Values joined by “and” are separate records of one study, mostly repeats; a detail may differ. Numbers after ± are the reported error.
BCHE: Cholinesterase (BCHE, Homo sapiens, UniProt P06276)
Sequence of UniProt P06276 (whole entry, looked up): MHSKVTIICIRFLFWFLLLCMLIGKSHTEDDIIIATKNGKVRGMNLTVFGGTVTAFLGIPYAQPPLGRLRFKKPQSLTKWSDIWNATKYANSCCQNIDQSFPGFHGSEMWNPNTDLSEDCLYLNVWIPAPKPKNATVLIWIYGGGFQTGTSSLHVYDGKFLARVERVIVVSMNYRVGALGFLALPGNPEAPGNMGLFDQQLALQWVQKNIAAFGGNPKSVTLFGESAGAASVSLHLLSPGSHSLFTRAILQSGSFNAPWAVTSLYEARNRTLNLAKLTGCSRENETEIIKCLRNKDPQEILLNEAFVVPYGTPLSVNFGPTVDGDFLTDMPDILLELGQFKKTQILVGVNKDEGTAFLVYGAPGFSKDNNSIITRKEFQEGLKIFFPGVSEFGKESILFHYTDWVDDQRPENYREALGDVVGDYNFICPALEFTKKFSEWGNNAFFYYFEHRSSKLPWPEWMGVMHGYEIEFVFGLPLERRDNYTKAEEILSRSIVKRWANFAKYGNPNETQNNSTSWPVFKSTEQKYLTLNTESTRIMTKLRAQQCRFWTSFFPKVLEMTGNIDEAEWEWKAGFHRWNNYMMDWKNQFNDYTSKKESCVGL
gag-pol integrase: Gag-Pol polyprotein, integrase (gag-pol, Human immunodeficiency virus 1, UniProt P12497)
ilvC: Ketol-acid reductoisomerase (NADP(+)) (ilvC, Mycobacterium tuberculosis, UniProt P9WKJ7)
Sequence of UniProt P9WKJ7 (whole entry, looked up): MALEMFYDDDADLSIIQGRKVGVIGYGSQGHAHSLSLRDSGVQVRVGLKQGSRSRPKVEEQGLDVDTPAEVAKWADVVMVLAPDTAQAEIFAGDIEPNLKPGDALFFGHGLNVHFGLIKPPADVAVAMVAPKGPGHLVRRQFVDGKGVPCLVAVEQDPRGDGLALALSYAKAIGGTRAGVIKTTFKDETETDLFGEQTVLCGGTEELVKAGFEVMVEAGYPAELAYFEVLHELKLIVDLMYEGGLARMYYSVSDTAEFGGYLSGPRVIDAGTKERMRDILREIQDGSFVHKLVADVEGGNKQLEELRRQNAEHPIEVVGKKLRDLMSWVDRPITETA
Sequence of UniProt O43614 (whole entry, looked up): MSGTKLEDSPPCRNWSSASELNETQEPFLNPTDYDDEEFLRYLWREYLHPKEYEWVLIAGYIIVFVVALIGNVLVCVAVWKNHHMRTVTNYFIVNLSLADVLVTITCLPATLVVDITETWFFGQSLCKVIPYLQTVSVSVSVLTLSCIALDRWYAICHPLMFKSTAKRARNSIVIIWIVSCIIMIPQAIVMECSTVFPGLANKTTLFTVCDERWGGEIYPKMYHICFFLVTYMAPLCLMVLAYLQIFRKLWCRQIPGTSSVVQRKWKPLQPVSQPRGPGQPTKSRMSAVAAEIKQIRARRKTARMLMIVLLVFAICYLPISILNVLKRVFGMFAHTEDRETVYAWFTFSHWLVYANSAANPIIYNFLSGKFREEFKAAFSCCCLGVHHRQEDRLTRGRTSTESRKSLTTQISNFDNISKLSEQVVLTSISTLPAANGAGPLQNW
Sequence of UniProt P20936 (whole entry, looked up): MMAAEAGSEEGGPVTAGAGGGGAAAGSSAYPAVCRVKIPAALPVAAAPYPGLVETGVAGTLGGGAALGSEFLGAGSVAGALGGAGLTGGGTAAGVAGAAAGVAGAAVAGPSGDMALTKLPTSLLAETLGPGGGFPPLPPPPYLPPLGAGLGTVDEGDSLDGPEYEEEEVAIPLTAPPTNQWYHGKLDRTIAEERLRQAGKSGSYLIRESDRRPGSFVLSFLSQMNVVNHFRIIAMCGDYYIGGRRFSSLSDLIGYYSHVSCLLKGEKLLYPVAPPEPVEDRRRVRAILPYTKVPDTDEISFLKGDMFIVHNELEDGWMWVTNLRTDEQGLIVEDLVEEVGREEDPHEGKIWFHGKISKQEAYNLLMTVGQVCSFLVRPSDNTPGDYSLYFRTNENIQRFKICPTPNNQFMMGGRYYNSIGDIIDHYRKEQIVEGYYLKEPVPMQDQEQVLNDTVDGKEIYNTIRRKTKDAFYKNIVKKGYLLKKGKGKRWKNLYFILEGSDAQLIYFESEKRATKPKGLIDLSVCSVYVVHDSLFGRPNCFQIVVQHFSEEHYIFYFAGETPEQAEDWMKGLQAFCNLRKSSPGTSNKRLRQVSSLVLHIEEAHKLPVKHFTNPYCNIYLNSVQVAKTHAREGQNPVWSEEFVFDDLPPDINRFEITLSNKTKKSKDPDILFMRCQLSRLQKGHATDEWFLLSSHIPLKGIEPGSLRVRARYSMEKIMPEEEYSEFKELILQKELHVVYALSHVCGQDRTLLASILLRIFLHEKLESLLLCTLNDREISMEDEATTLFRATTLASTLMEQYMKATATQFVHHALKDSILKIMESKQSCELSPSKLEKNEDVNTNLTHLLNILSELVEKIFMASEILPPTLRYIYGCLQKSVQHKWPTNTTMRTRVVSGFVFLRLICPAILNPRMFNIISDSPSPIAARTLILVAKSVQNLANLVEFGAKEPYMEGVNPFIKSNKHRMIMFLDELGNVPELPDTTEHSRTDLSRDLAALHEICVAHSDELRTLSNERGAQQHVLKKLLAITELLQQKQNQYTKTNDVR
Sequence of UniProt P31751 (whole entry, looked up): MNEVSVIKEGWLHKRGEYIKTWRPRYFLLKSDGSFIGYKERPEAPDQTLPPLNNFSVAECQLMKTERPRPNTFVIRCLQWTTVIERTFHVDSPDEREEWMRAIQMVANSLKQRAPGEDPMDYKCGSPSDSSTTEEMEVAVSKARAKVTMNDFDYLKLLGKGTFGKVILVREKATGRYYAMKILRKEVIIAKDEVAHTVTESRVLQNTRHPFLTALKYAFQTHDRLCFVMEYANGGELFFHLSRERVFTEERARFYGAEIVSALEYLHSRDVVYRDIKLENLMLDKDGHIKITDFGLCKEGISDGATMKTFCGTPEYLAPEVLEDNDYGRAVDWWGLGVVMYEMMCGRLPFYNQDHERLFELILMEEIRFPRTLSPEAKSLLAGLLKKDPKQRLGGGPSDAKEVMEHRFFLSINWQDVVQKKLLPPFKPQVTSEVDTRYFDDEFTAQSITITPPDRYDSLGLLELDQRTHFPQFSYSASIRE
Sequence of UniProt P35462 (whole entry, looked up): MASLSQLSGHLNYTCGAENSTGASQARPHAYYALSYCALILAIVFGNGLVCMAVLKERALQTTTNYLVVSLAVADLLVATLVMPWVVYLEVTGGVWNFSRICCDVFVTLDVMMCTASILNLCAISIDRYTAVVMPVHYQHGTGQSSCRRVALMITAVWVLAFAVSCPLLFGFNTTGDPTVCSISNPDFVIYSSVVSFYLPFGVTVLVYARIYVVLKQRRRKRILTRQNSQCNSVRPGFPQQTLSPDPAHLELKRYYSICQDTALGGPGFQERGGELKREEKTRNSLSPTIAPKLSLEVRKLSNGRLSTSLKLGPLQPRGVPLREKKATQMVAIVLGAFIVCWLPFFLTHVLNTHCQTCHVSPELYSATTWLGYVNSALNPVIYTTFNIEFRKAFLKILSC
Sequence of UniProt Q61327 (whole entry, looked up): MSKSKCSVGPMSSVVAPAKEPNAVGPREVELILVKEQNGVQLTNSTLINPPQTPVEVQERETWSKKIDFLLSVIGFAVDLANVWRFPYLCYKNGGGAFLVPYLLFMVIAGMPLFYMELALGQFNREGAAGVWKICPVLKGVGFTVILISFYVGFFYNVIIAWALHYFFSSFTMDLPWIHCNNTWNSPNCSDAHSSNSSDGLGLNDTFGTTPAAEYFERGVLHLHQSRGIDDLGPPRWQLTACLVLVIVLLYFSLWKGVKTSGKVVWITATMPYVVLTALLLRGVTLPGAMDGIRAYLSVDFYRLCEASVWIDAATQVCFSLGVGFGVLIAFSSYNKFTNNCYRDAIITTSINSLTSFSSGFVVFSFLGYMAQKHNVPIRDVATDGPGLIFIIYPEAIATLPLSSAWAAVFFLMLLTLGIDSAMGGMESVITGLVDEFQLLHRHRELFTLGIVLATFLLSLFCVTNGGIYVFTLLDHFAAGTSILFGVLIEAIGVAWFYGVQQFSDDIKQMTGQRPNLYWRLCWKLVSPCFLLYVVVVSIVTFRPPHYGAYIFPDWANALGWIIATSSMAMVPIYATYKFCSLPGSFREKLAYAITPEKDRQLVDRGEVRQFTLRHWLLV

For `CN1CCC[C@@H]1Cc1c[nH]c2ccc(CCS(=O)(=O)c3ccccc3)cc12`, the IC50 was 1.82 ± 1.13 µM (BCHE; inhibitor, fluorometric).
The IC50 of `COc1cc(Nc2ncc(F)c(Nc3ccc4c(n3)NC(=O)C(C)(C)O4)n2)cc(OC)c1OC` is reported as over 10 µM (Orexin receptor type 2 (HCRTR2, Homo sapiens, UniProt O43614)).
`CCN(CC)c1ccc(/C=C2\CCC(/C=N/N=C/c3cccnc3)=C2N2CCOCC2)cc1` has an IC50 of over 100 µM (gag-pol integrase; strand transfer activity, inhibitor; wild-type integrase).
The IC50 of `C[N+](C)(CCOc1ccccc1)Cc1cccs1` is reported as 10 ± 3.22 µM (BCHE; inhibitor; with Triton).
The IC50 of `COc1ccccc1NS(=O)(=O)c1ccc(N/N=C(\C)c2ccccc2Br)c([N+](=O)[O-])c1` is reported as over 100 µM (gag-pol integrase; 3'-processing activity, inhibitor; wild-type integrase).
`O=C(NCCCNc1nc(Nc2cccc(CN3CCOCC3)c2)ncc1C1CC1)C1CCC1` gave an IC50 of 6.01 ± 1.46 µM (BCHE; inhibitor; with Triton).
The Kb of `Cc1[nH]c(C)c(S(=O)(=O)Nc2ccc(S(F)(F)(F)(F)F)cc2)c1C(=O)N1CCC(F)(F)C1` is reported as 2 µM (D(3) dopamine receptor (DRD3, Homo sapiens, UniProt P35462); allosteric modulator, radioligand binding; with: dopamine).
For `COc1cc2nc(N3CCN(C(=O)C4COc5ccccc5O4)CC3)nc(N)c2cc1OC` (centres unmarked), the IC50 was 2.51 µM (Plasmodium falciparum; D10).
`O=C(CN1C2=NCCN2c2ccccc21)c1ccc(-c2ccccc2)cc1` gave an IC50 of 4.68 ± 0.3 µM (BCHE; inhibitor).
`CCOc1cccc(/C=N/NC(=O)c2n[nH]c3c2CCC3)c1O` gave an IC50 of over 100 µM (gag-pol integrase; strand transfer activity, inhibitor; wild-type integrase).
`CC(C)c1nc2c(=O)n(O)c(=O)[nH]c2s1` gave a Ki of 10.9 ± 1 µM (ilvC; inhibitor; 30 min preincubation, with: NADPH).
With `Oc1ccc(Br)cc1/C=N/Nc1cccc2cccnc12` the IC50 was over 100 µM (gag-pol integrase; 3'-processing activity, inhibitor; wild-type integrase).
For `NCCc1ccc(Oc2ccc(O)cc2)c(I)c1`, the IC50 was 0.81 µM (Sodium-dependent dopamine transporter (Slc6a3, Mus musculus, UniProt Q61327); binding; TAAR1 knock-out mice, striatal synaptosomes; with: [3H]CFT 1 nM).
`c1ccc2sc(C3(N4CCCCC4)CCCCC3)cc2c1` has an IC50 of 8.63 ± 3.08 µM (BCHE; inhibitor; with Triton).
The IC50 of `O=C(N/N=C/c1c(O)ccc2ccccc12)c1ccncc1` is reported as over 100 µM (gag-pol integrase; 3'-processing activity, inhibitor; wild-type integrase).
For `C[C@H]1CN(c2n[nH]c3nc(N[C@H]4CC[C@H](NS(=O)(=O)CCC(F)(F)F)CC4)ncc23)CCO1`, the IC50 was at least 20 µM (RAC-beta serine/threonine-protein kinase (AKT2, Homo sapiens, UniProt P31751); biochemical).
For `CC[C@H](C)[C@H](NC(=O)CNC(=O)[C@H](CC(=O)O)NC(=O)[C@H](Cc1ccc(OP(=O)(O)O)cc1)NC(=O)[C@@H]1CCCN1C(=O)[C@H](CCCCN)NC(=O)[C@H](CO)NC(=O)CNC(=O)[C@H](Cc1ccccc1)NC(=O)[C@@H](NC(=O)[C@H](CCSC)NC(=O)[C@H](CC(C)C)NC(=O)[C@H](CCC(=O)O)NC(=O)c1ccc2c(c1)C(=O)OC21c2ccc(N(C)C)cc2Oc2cc(N(C)C)ccc21)[C@@H](C)O)C(=O)N1CCC[C@H]1C(=O)N[C@@H](C)C(=O)N[C@@H](CO)C(=O)N[C@@H](CCC(=O)O)C(=O)N[C@@H](CC(=O)O)C(=O)O`, the Kd was 1.41 µM (Ras GTPase-activating protein 1, SH2 domains (RASA1, Homo sapiens, UniProt P20936); binding).
For `O=c1[nH]c2nc(-c3ccccc3)sc2c(=O)n1O`, the Ki was 0.023 µM and 0.0233 µM (ilvC; pre-incubation 30 min without NADPH, with: NADPH 200 µM, AL 1 mM).
For `O=C(NCCN1CCC2(CC1)C(=O)NCN2c1cccc(F)c1)c1ccc(F)c(F)c1`, the IC50 was 1.24 ± 0.28 µM (BCHE; inhibitor).
The IC50 of `Cc1nc2ccccc2c(=O)n1/N=C/c1ccccc1O` is reported as over 50 µM (Gag-Pol polyprotein, integrase with LEDGF/p75 (gag-pol, Human immunodeficiency virus 1, UniProt P12497); LEDGF/p75-integrase interaction, inhibitor, AlphaScreen).
`CN1CCc2cc(Cl)c(O)cc2[C@@H](c2cccc3c2OCC3)C1` has an IC50 of 0.4 ± 0.128 µM (BCHE; enzyme activity, fluorescence).
With `C/C(=N\Nc1ccc(S(=O)(=O)Nc2ccccc2)cc1[N+](=O)[O-])c1cc(O)ccc1O` the IC50 was over 100 µM (gag-pol integrase; 3'-processing activity, inhibitor; wild-type integrase).
For `NCC(=O)NCCC(c1ccccc1)c1ccccc1`, the IC50 was 3.98 µM (Plasmodium falciparum; 7G8).
`C[C@@H](N[C@H]1CCCC[C@@H]1NC(=O)c1ccc(Cl)cc1)c1cccc2ccccc12` gave an IC50 of 14.6 ± 4.12 µM (BCHE; inhibitor, fluorometric).
`O=c1[nH]c2sc(-c3ccccc3)nc2c(=O)n1O` gave a Ki of 13.8 ± 2 µM (ilvC; inhibitor; 30 min preincubation, with: NADPH).
`COc1c(Cl)cc(Cl)cc1/C=N/NC(=O)c1ccncc1` gave an IC50 of over 100 µM (gag-pol integrase; strand transfer activity, inhibitor; wild-type integrase).

For quick reference, copied from above:
The IC50 of `Cc1nc2ccccc2c(=O)n1/N=C/c1ccccc1O` is reported as over 50 µM (Gag-Pol polyprotein, integrase with LEDGF/p75 (gag-pol, Human immunodeficiency virus 1, UniProt P12497); LEDGF/p75-integrase interaction, inhibitor, AlphaScreen).
`CN1CCc2cc(Cl)c(O)cc2[C@@H](c2cccc3c2OCC3)C1` has an IC50 of 0.4 ± 0.128 µM (BCHE; enzyme activity, fluorescence).
